{"data": "Results pooled from the literature", "note": "Every numbered part comes from another study and shows a few of its results, in no order. Substitutions count along the parent as printed."}
{"data": "Series 1", "target": "Interferon regulatory factor 3, full length, phosphomimetic (IRF3, Homo sapiens, UniProt Q14653, residues 1-427, S386D/S396D/S398D/S402D/T404D/S405D)", "method": "protein-binding microarray", "molecule type": "double-stranded DNA, one strand shown", "sample": "in vitro", "concentration": "2540 nM top", "notes": "60-bp whole probe", "with": "salmon DNA 0.4 mg/ml", "relative to": "random background probes", "direction": "higher = stronger binding", "all sequences stand within": "GCCTAGCAC … GTCTTGATTCGCTTGACGCTGCTG", "Residues (chain)": "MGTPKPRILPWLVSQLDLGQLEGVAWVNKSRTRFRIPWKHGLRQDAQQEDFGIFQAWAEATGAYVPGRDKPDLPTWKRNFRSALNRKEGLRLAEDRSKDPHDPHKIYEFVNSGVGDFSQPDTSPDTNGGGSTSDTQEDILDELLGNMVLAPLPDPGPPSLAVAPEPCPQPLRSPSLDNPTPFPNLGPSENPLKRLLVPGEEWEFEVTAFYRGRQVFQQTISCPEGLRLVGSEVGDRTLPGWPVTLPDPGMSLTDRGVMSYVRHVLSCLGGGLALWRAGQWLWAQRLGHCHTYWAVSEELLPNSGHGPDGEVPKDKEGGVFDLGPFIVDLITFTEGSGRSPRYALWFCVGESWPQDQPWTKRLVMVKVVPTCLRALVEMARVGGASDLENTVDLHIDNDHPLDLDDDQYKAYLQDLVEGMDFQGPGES"}
{"Oligonucleotide": "TCATGTCTGTTTCCTCTTACTGTGCTA", "fitted relative affinity": "3.14 z-score"}
{"Oligonucleotide": "TCAGCTTTCTTTAACTCACTGTGCTAG", "fitted relative affinity": "0.851 z-score"}
{"Oligonucleotide": "GTGATCCGTCCGCCTCAGCCGTGCTAG", "fitted relative affinity": "0.422 z-score"}
{"Oligonucleotide": "TTTTTTTTTTTTTACTTCGGGTGCTAG", "fitted relative affinity": "1.79 z-score"}
{"Oligonucleotide": "GACCGACTGGGGTATCGGGACGTGCTA", "fitted relative affinity": "-0.127 z-score"}
{"Oligonucleotide": "TTAGGTTTGCTACTGCTTTAGTGCTAG", "fitted relative affinity": "-0.394 z-score"}
{"Oligonucleotide": "TTAGAACTGAGTATCGGTTAGTGCTAG", "fitted relative affinity": "0.877 z-score"}
{"Oligonucleotide": "GACAATATCAGTCTCGAGACGTGCTAG", "fitted relative affinity": "1.23 z-score"}
{"Oligonucleotide": "TTAGATTACGGGTATCGATTAGTGCTA", "fitted relative affinity": "0.416 z-score"}
{"Oligonucleotide": "GACGATCTCTGTATCGAGACGTGCTAG", "fitted relative affinity": "0.78 z-score"}
{"Oligonucleotide": "CGGCCTCTAGGTTTTCTGAAGTGCTAG", "fitted relative affinity": "-0.74 z-score"}
{"Oligonucleotide": "TTAGGTATCGAGACTGGGTTAGTGCTA", "fitted relative affinity": "0.146 z-score"}
{"data": "Series 2", "target": "CCNF, cyclin fold, Cln2 fusion (human)", "method": "yeast growth competition, sequencing", "sample": "yeast", "notes": "strong parent motif", "relative to": "not given", "direction": "higher = stronger binding", "starting sequence": "WEE1 docking peptide (human); HKTFRKLRLFDTP; partner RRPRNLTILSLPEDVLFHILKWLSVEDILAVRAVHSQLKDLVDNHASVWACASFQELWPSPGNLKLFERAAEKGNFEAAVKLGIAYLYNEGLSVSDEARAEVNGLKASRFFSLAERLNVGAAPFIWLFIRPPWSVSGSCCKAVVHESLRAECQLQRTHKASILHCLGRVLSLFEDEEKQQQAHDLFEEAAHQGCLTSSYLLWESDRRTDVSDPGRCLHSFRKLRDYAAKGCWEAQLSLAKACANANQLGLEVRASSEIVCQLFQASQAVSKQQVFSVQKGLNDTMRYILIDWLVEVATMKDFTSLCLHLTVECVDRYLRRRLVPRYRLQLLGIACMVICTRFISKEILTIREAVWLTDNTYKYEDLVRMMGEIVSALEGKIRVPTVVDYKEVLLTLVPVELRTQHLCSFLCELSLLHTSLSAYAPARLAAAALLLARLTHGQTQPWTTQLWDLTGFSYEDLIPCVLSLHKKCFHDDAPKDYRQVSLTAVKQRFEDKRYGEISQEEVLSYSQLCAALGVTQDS"}
{"Substitution": "K2I", "normalised enrichment score": 1.55}
{"Substitution": "P13L", "normalised enrichment score": 1.46}
{"Substitution": "D11W", "normalised enrichment score": 2.78}
{"Substitution": "D11I", "normalised enrichment score": 2.1}
{"Substitution": "F4L", "normalised enrichment score": 1.49}
{"Substitution": "K6Y", "normalised enrichment score": 2.16}
{"Substitution": "D11G", "normalised enrichment score": 0.942}
{"Substitution": "F10H", "normalised enrichment score": 1.24}
{"Substitution": "T12P", "normalised enrichment score": 2.28}
{"Substitution": "P13R", "normalised enrichment score": 2.33}
{"data": "Series 3", "target": "ABI1, truncated, D143A, DHFR fusion (Arabidopsis thaliana)", "method": "DHFR PCA, deep sequencing", "sample": "yeast", "notes": "methotrexate growth selection, single substitutions", "with": "(+)-ABA 0.032 µM", "relative to": "wild-type fitted maximum", "direction": "higher = stronger binding", "starting sequence": "PYL1, truncated, DHFR fusion (Arabidopsis thaliana); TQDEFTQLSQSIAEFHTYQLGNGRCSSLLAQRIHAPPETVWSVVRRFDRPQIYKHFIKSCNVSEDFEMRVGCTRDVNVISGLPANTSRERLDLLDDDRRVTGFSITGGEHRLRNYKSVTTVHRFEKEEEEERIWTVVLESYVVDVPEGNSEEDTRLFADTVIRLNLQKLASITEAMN"}
{"Substitution": "K126Q", "relative binding score": "40.4%"}
{"Substitution": "F56Q", "relative binding score": "-6.44%"}
{"Substitution": "H34V", "relative binding score": "5.42%"}
{"Substitution": "P83Y", "relative binding score": "7.82%"}
{"Substitution": "L93I", "relative binding score": "68%"}
{"Substitution": "D96E", "relative binding score": "31%"}
{"Substitution": "D95M", "relative binding score": "-4.08%"}
{"Substitution": "D95V", "relative binding score": "-2.97%"}
{"data": "Further values, each from its own experiment"}
{"Molecule": "PhoQ, residues 284 288 289 292 302 303 SIHMAM", "target": "PhoP, residues 12 14 15 18 19 LHSVW (Escherichia coli, UniProt P23836)", "test": "Sort-seq, refers to: YFP reporter", "test system": "E. coli", "setting": "PhoQ-PhoP variant library, with: 10 µM Mg2+", "how to read": "relative to: high Mg2+ state, higher = stronger signaling", "endpoint": "fold induction", "value": 3.84}
{"note": "For quick reference, copied from above (series 1):"}
{"Oligonucleotide": "TTAGGTTTGCTACTGCTTTAGTGCTAG", "fitted relative affinity": "-0.394 z-score"}
{"Oligonucleotide": "TCATGTCTGTTTCCTCTTACTGTGCTA", "fitted relative affinity": "3.14 z-score"}
{"Oligonucleotide": "TTAGGTATCGAGACTGGGTTAGTGCTA", "fitted relative affinity": "0.146 z-score"}
{"Oligonucleotide": "GTGATCCGTCCGCCTCAGCCGTGCTAG", "fitted relative affinity": "0.422 z-score"}
